Published values pooled from the literature.
Each line is one published result; not all experiments were run side by side.
UniProt Q00534, sequence (whole entry, looked up): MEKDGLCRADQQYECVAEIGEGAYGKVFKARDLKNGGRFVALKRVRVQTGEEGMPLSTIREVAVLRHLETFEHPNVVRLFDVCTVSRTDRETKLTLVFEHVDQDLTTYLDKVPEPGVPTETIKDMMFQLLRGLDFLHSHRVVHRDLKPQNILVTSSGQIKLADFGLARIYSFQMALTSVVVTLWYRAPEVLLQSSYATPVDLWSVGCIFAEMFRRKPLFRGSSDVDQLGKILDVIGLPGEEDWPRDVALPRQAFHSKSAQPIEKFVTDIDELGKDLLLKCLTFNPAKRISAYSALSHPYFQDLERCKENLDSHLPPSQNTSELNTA
UniProt P00519, sequence (whole entry, looked up): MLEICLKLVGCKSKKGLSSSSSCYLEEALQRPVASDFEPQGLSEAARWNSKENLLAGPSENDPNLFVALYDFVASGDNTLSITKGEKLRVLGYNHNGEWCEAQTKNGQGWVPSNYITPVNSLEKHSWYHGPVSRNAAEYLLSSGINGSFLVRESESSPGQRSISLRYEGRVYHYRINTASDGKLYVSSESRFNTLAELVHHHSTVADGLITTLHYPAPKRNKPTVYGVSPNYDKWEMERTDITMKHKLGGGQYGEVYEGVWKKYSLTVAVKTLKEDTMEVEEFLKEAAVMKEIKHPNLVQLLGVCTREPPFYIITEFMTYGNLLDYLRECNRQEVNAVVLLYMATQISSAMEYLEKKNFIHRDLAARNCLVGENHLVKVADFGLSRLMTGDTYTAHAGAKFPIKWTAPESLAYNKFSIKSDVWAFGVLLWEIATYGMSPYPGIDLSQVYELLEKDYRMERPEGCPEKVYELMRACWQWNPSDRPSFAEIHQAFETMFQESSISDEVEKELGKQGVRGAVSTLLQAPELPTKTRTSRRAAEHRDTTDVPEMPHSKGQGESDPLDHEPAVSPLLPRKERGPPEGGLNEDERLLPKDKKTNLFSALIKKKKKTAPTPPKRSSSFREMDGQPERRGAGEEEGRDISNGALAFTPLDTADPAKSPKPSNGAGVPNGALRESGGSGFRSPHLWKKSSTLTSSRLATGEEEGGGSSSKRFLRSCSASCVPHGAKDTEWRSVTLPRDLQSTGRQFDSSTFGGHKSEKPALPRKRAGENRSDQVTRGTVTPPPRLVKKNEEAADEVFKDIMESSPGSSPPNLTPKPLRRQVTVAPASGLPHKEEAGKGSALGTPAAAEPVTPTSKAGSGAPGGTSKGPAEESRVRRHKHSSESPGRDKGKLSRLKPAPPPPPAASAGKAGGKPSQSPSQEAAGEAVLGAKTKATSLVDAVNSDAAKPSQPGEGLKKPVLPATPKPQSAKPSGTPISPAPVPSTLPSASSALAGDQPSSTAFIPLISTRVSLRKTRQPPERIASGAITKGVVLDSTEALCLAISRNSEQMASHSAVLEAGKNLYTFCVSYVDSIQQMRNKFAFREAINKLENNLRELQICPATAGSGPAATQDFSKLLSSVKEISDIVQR
UniProt P29597, sequence (whole entry, looked up): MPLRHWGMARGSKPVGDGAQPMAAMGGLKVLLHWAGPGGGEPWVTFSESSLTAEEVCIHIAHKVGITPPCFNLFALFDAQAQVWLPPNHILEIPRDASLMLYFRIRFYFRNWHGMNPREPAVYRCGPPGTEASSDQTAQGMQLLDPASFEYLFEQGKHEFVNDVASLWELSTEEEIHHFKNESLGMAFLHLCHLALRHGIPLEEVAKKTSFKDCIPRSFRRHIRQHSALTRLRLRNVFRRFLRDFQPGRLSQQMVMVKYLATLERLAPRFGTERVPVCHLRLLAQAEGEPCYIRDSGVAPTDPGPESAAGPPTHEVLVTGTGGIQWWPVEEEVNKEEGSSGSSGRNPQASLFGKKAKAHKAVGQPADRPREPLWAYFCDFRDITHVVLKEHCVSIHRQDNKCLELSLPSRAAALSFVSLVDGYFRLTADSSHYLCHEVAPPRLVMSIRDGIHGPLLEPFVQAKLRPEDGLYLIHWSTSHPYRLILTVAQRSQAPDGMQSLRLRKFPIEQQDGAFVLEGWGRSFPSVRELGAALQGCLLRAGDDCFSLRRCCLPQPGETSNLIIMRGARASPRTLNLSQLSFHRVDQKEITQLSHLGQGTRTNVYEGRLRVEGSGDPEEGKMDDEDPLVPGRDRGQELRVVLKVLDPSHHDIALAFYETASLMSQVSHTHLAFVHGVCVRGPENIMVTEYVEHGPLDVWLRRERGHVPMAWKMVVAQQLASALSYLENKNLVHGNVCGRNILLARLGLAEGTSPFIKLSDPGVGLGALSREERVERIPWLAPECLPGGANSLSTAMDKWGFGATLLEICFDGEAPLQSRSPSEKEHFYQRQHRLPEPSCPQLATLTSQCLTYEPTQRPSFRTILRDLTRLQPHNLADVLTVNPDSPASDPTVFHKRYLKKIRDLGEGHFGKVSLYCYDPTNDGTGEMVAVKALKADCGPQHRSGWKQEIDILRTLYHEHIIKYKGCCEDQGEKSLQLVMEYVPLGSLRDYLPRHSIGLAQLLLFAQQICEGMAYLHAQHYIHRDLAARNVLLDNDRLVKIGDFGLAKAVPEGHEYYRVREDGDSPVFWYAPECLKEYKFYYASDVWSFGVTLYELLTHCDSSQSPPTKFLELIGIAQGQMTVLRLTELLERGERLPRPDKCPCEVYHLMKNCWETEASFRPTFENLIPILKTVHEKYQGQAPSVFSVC
UniProt Q14012, sequence (whole entry, looked up): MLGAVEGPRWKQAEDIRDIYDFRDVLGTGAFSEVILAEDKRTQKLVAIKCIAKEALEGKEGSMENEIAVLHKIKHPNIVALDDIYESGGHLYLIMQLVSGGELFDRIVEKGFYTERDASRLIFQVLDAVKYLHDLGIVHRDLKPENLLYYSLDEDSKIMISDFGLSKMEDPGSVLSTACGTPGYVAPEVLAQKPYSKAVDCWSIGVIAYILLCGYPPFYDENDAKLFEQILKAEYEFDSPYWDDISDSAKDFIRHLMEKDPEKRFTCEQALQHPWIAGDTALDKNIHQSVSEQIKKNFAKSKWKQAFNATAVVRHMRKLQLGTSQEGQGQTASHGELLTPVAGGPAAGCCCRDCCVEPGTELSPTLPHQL
UniProt P25103, sequence (whole entry, looked up): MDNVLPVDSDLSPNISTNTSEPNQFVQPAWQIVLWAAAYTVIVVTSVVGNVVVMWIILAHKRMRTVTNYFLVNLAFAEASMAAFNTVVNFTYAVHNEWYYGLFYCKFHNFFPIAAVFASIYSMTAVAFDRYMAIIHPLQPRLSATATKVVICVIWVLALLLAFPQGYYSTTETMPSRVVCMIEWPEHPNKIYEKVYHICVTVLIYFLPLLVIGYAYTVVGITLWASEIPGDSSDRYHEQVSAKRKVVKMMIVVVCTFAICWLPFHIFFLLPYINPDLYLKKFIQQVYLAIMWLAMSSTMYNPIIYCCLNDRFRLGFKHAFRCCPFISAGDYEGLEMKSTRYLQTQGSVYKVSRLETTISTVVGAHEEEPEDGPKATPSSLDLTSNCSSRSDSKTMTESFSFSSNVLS
UniProt Q86Z02, sequence (whole entry, looked up): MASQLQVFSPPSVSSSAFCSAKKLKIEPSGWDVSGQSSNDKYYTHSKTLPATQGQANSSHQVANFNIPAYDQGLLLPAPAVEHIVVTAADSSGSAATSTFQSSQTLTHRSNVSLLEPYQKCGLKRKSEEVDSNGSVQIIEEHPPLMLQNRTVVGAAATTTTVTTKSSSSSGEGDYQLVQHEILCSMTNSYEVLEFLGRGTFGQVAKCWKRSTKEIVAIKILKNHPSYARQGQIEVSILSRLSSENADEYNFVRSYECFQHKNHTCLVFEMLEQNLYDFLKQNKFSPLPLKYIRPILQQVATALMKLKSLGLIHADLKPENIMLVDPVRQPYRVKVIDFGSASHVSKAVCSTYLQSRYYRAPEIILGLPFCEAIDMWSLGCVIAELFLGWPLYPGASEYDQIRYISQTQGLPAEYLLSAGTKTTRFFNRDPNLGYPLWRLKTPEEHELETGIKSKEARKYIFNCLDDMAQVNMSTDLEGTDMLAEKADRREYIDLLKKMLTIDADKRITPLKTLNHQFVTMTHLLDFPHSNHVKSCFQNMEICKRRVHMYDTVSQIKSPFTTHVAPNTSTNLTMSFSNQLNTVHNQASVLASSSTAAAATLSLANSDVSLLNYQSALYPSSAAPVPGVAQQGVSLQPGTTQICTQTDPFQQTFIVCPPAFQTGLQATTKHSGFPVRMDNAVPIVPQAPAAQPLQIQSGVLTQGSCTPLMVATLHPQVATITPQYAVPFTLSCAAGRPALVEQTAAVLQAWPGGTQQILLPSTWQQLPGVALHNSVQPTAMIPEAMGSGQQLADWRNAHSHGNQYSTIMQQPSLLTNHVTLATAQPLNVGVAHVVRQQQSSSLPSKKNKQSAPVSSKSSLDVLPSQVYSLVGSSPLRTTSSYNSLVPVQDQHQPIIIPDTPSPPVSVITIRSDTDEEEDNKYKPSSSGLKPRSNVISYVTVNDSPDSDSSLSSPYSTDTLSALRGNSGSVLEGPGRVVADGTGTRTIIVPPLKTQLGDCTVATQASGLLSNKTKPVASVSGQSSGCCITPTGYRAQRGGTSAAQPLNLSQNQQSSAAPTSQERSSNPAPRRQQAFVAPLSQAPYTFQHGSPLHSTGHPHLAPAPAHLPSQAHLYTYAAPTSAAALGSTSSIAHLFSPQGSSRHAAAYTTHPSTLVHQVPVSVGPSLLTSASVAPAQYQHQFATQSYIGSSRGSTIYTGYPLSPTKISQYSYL

Structure (SMILES) | target | assay | system | conditions | inhibition [%]
N[C@H](C(=O)N1CCCC1)C1CCN(c2nccc3c(-c4ncc(Cl)cc4Cl)cccc23)CC1 | ABL1 (Homo sapiens, UniProt P00519) | enzyme activity, inhibitor | – | 10 µM | 10
CC(=O)NC[C@@H]1[C@@H](O)C[C@H]2[C@H](O)C[C@@H](CO)N12 | Spodoptera litura β-N-acetylglucosaminidase | – | crude enzyme | 0.107 µM, run 1, together with: p-nitrophenyl GlcNAc | 16.3
O=C(O)c1ccccc1/C=N/Nc1nc(-c2ccccc2Cl)cs1 | Cyclin-dependent kinase 6, with cyclin D1 (CDK6, Homo sapiens, UniProt Q00534) | enzyme activity, inhibitor | – | 1 µM | -3.3
CC(C)[C@H]1NC(=O)C[C@H]2/C=C/CCSSC[C@@H](NC1=O)C(=O)N[C@H](Cc1cccc3ccccc13)C(=O)NCC(=O)O2 | CAMK1 (Homo sapiens, UniProt Q14012) | enzyme activity, inhibitor | – | 10 µM | 6.3
O=C(CN1CN(c2ccccc2)C2(CCN(C(=O)c3cnc4[nH]ncc4c3)CC2)C1=O)NCC(F)(F)F | EGFR (Homo sapiens, UniProt P00533, A750P/del747-749) | inhibitor | – | concentration not given | < 50
COc1ccc(F)cc1S(=O)(=O)Nc1cnc2c(c1)C(=O)NCCO2 | NMDA receptor Polyamine site | radioligand binding | – | 10 µM | 13
CS(C)(=O)=Nc1ccc(-c2ccc(-c3nc4cc(O[C@@H]5CO[C@H]6[C@@H]5OC[C@H]6O)[nH]c4cc3F)cc2)cc1 | SKCa channel | binding, radioligand binding | – | 10 µM | 5
C[C@H](NCc1ccc(-c2ccc(C(F)(F)F)cc2)cc1)C(N)=O | TACR1 (Homo sapiens, UniProt P25103) | binding, radioligand binding | biochemical | 1 µM, together with: [3H]substance P 0.80 nM | -11
CN(/N=C/c1ccccc1C(=O)O)c1nc(-c2ccccc2Cl)cs1 | HIPK1 (Homo sapiens, UniProt Q86Z02) | enzyme activity, inhibitor | – | 1 µM | -6.22
CN(C)[C@H]1C[C@@]23CC[C@@]4(O2)C(=CC[C@]2(C)[C@@H](c5ccc6ccncc6c5)CC[C@H]24)C=C3[C@@H](O)[C@@H]1O | Non-receptor tyrosine-protein kinase TYK2, JH2 pseudokinase domain (TYK2, Homo sapiens, UniProt P29597) | ATP probe labelling, inhibitor, KiNativ profiling | – | 1 µM | -0.1

Excerpt of the above:
Structure (SMILES) | target | assay | system | conditions | inhibition [%]
CS(C)(=O)=Nc1ccc(-c2ccc(-c3nc4cc(O[C@@H]5CO[C@H]6[C@@H]5OC[C@H]6O)[nH]c4cc3F)cc2)cc1 | SKCa channel | binding, radioligand binding | – | 10 µM | 5
